{"data": "Assay results pooled from the literature", "note": "Each numbered part is a random draw from the data of one study; scales do not carry over between parts.", "UniProt P05771, sequence (whole entry, looked up)": "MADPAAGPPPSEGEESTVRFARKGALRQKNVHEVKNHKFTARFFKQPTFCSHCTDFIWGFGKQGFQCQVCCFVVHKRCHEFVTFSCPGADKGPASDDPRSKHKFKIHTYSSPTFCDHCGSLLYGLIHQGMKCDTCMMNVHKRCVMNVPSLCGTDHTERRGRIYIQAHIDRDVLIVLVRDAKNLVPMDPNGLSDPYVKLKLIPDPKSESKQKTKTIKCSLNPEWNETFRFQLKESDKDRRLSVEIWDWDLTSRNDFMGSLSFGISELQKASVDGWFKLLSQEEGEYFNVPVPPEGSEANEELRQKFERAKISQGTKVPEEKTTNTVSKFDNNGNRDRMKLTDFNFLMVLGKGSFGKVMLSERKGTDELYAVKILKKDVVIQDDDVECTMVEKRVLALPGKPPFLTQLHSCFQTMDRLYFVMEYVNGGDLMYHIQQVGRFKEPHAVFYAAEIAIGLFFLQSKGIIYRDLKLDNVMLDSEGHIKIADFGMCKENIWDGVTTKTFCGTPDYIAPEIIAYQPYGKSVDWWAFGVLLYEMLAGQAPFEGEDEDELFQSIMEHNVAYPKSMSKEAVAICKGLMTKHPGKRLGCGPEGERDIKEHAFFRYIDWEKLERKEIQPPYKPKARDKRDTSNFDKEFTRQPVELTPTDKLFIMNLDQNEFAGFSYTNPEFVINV"}
{"data": "Study 1", "target": "POU domain, class 5, transcription factor 1, POU domain (Pou5f1, Mus musculus, UniProt P20263, residues 131-289)", "technique": "Spec-seq", "form": "double-stranded DNA, one strand shown", "matrix": "in vitro", "tested at": "not given", "setting": "whole probe, mean of replicates", "baseline": "not given", "reading": "lower = stronger binding", "constant ends, left off below": "GAGTCGTCTCGTCAGCAC … CCGTAGAGCACTCAGGTC", "UniProt P20263, sequence (131-289, looked up)": "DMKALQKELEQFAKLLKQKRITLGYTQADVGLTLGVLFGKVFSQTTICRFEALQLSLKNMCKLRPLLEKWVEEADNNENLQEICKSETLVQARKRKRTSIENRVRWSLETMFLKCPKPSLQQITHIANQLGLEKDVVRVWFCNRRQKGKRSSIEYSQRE"}
{"Strand": "ATGGTTAT", "relative binding energy": "0.147 ln ratio"}
{"Strand": "ATGCAACC", "relative binding energy": "0.0282 ln ratio"}
{"Strand": "ATGCCTTA", "relative binding energy": "0.339 ln ratio"}
{"Strand": "CTTATAAT", "relative binding energy": "0.56 ln ratio"}
{"Strand": "ATCTGAAT", "relative binding energy": "-0.732 ln ratio"}
{"Strand": "GATCTAAT", "relative binding energy": "0.454 ln ratio"}
{"Strand": "ATGGCTAT", "relative binding energy": "0.494 ln ratio"}
{"Strand": "GAAATAAT", "relative binding energy": "0.0822 ln ratio"}
{"data": "Study 2", "target": "TAR DNA-binding protein 43, full length, His tag (TARDBP, Homo sapiens, UniProt Q13148, residues 1-414)", "technique": "RNA Bind-n-Seq", "form": "RNA", "matrix": "in vitro", "tested at": "20 nM", "setting": "6-mer, flanks averaged, single round", "together with": "150 mM KCl", "baseline": "input library", "reading": "higher = stronger binding"}
{"Strand": "CCCGCC", "6-mer enrichment (R)": 0.642}
{"Strand": "ACUGCA", "6-mer enrichment (R)": 0.674}
{"Strand": "GGAUCU", "6-mer enrichment (R)": 0.841}
{"Strand": "AAAUCA", "6-mer enrichment (R)": 0.605}
{"Strand": "ACACUU", "6-mer enrichment (R)": 0.604}
{"Strand": "UACGCC", "6-mer enrichment (R)": 0.643}
{"Strand": "ACAUAG", "6-mer enrichment (R)": 0.684}
{"Strand": "AGCCAA", "6-mer enrichment (R)": 0.711}
{"data": "Study 3", "target": "PABPC1L2, full length, GST fusion (mouse, UniProt A0ABA7IW68)", "technique": "RNAcompete", "form": "RNA", "matrix": "in vitro", "tested at": "20 nM", "setting": "7-mer, probes averaged, single round", "baseline": "mean of 7-mers", "reading": "higher = stronger binding", "Target sequence (chain)": "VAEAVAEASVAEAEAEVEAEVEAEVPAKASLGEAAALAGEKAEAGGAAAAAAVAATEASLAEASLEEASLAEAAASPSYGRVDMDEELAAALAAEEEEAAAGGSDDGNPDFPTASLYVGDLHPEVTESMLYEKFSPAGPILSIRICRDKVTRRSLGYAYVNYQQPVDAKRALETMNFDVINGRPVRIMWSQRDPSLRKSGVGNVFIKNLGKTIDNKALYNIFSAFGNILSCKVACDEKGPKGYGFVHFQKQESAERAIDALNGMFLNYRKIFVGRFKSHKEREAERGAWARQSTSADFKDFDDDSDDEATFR"}
{"Strand": "GAAUUGA", "7-mer Z-score": 0.00617}
{"Strand": "GCACGUG", "7-mer Z-score": -0.106}
{"Strand": "GUGCUUA", "7-mer Z-score": -0.079}
{"Strand": "CGGAACU", "7-mer Z-score": -0.0609}
{"Strand": "UCAACGU", "7-mer Z-score": -0.269}
{"Strand": "UAUGCUA", "7-mer Z-score": -0.211}
{"Strand": "AACCGGC", "7-mer Z-score": -0.0391}
{"Strand": "UCACGUC", "7-mer Z-score": -0.325}
{"data": "Mixed results"}
{"Structure (SMILES)": "O=c1c2ccccc2[nH]c(=S)n1CCN1CCC(=C(c2ccc(F)cc2)c2ccc(F)cc2)CC1", "target": "Protein kinase C beta type, isoform beta-I (PRKCB, Homo sapiens, UniProt P05771)", "test": "enzyme activity, inhibitor", "conditions": "0.5 µM", "how to read": "baseline: control", "measurement": "remaining activity", "result": "96%"}
{"note": "Some of these lines once more (study 2):"}
{"Strand": "UACGCC", "6-mer enrichment (R)": 0.643}
{"Strand": "ACAUAG", "6-mer enrichment (R)": 0.684}
{"Strand": "AGCCAA", "6-mer enrichment (R)": 0.711}
